Experimental data of several laboratories.
Compare with care: the assays were run in different laboratories.
ACHE: Acetylcholinesterase (ACHE, Homo sapiens, UniProt P22303)
Sequence of UniProt P22303 (whole entry, looked up): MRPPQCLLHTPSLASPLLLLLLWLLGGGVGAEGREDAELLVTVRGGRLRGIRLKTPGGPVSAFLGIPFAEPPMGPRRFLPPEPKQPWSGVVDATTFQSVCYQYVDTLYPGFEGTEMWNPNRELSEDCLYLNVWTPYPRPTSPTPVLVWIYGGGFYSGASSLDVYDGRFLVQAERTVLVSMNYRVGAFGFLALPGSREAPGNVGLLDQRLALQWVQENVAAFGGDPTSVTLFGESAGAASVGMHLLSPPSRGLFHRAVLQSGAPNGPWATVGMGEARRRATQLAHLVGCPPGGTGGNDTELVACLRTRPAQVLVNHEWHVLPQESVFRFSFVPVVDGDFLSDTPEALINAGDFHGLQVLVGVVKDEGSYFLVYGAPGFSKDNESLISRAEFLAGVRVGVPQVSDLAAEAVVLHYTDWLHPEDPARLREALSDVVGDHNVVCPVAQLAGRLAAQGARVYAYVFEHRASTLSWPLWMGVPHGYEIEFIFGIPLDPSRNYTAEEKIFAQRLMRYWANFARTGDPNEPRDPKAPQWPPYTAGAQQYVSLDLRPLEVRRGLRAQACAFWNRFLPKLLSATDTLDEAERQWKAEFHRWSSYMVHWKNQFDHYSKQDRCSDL
PFF0160c E182D: Dihydroorotate dehydrogenase (quinone), mitochondrial (PFF0160c, Plasmodium falciparum, UniProt Q08210, E182D)
BCHE: Cholinesterase (BCHE, Homo sapiens, UniProt P06276)
Sequence of UniProt P06276 (whole entry, looked up): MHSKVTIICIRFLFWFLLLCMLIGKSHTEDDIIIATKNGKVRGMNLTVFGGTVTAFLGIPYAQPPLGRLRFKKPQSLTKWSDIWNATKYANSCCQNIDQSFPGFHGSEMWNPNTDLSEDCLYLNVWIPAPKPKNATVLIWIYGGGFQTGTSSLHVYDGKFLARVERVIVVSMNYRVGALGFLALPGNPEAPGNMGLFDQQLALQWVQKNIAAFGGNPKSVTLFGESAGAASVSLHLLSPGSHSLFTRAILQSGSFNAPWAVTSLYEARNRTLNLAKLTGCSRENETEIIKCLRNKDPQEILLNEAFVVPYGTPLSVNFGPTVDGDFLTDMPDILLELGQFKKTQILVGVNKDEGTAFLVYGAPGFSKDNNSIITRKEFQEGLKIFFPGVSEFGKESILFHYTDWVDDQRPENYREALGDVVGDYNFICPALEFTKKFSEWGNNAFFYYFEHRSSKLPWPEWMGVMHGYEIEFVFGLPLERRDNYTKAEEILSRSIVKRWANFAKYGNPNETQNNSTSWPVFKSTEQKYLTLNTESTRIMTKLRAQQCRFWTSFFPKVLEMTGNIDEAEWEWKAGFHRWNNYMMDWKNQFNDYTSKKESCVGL
Sequence of UniProt P28335 (whole entry, looked up): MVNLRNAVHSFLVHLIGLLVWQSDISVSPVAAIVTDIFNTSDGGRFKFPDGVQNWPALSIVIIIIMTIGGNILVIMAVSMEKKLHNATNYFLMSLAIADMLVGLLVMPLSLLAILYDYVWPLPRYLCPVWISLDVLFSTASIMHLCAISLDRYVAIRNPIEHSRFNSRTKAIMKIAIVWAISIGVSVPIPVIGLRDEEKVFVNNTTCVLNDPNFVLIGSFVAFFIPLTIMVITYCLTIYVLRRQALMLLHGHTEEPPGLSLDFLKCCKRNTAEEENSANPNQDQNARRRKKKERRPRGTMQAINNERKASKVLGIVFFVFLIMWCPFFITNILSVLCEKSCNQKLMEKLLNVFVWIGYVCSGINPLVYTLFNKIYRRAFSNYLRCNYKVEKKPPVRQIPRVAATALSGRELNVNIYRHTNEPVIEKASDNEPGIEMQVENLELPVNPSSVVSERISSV
Sequence of UniProt P12821 (whole entry, looked up): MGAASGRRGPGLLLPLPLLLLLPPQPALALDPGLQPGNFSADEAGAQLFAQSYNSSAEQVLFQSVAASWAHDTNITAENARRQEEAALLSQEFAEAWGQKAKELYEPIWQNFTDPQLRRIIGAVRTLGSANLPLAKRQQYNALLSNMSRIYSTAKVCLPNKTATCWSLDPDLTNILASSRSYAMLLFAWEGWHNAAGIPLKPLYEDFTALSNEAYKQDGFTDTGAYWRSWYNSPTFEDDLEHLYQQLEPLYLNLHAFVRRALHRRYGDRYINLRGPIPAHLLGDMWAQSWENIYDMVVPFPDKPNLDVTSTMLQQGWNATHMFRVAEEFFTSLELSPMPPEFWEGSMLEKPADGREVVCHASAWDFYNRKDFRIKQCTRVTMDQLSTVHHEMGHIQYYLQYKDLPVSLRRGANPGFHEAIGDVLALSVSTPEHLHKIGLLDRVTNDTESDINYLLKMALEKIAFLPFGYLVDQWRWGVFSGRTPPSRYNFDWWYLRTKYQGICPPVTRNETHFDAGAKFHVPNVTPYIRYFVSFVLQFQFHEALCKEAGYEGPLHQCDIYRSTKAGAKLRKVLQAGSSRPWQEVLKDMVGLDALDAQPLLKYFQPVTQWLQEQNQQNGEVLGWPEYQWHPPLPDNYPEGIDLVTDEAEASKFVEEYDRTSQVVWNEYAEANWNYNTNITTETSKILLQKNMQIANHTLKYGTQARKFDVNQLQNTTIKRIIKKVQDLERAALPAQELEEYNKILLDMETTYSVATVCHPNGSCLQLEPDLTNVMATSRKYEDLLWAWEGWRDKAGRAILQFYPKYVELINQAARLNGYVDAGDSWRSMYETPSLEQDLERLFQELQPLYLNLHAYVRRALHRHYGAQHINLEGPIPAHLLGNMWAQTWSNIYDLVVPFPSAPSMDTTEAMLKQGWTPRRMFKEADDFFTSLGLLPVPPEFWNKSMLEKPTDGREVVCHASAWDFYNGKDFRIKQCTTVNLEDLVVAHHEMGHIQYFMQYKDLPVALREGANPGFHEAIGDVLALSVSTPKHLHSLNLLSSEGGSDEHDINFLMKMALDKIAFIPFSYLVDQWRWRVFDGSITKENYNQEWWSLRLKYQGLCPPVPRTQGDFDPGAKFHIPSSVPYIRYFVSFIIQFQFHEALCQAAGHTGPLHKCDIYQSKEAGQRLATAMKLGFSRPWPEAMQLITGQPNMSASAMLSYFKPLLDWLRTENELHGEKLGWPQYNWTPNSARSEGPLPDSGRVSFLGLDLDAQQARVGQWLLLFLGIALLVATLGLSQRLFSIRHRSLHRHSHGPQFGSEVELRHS
Sequence of UniProt Q9H792 (whole entry, looked up): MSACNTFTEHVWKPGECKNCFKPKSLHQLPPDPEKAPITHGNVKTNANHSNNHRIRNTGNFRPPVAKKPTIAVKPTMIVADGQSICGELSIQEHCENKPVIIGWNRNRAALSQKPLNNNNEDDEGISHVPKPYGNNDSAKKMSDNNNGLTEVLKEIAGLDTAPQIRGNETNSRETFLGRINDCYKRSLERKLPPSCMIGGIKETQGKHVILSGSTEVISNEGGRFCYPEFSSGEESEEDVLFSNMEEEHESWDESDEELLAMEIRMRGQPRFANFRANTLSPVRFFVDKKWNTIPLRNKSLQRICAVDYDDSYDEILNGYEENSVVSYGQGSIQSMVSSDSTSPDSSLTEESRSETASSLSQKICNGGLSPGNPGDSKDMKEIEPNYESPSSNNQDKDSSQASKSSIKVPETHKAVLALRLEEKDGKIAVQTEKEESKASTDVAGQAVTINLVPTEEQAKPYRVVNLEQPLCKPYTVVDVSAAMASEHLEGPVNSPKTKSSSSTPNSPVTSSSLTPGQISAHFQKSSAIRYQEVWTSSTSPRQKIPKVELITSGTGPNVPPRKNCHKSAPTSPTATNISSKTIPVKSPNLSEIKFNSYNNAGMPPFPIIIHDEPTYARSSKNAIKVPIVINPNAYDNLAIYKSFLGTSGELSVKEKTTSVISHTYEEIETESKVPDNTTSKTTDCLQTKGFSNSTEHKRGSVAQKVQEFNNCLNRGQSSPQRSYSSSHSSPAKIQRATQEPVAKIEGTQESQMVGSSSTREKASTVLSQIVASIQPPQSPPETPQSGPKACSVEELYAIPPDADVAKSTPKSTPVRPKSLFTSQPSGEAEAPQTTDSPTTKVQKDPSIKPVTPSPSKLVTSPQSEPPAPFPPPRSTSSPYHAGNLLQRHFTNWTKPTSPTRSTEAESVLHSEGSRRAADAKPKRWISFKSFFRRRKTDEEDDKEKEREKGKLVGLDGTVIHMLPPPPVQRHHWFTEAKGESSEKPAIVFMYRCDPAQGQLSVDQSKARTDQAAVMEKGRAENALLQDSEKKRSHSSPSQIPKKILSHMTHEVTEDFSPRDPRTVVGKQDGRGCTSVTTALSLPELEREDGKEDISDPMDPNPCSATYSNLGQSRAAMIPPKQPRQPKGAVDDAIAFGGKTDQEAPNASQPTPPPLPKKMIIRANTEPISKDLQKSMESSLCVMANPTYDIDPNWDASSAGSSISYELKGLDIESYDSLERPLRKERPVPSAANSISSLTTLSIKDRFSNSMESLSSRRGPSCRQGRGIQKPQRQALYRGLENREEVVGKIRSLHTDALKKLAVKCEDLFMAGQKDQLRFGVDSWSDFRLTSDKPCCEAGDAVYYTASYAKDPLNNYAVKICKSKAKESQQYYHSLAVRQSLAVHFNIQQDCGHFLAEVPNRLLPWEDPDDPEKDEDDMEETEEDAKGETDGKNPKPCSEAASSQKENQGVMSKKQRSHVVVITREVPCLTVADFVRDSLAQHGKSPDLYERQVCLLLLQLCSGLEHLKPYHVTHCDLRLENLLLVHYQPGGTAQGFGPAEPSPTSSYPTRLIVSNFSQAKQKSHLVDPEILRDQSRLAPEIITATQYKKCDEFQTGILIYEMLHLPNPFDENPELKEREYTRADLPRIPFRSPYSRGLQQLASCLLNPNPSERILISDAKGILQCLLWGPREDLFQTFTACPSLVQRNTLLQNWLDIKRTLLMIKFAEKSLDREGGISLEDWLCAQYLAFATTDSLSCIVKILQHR
Sequence of UniProt P28221 (whole entry, looked up): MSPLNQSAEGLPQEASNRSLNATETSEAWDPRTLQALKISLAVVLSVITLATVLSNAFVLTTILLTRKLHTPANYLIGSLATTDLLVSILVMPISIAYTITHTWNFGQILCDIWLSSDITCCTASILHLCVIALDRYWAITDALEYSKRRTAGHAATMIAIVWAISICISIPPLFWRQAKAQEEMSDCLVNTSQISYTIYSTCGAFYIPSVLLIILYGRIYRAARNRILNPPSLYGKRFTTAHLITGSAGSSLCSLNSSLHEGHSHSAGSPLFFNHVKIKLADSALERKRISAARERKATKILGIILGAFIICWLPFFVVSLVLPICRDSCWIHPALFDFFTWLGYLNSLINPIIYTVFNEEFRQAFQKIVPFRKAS

The inhibition of `COc1cc(/C=C/C(=O)O)ccc1OCc1cn(CC(=O)Nc2ccccc2)nn1` is reported as 6.43% (ACHE; enzyme activity, inhibitor, Ellman; 40 µM).
For `C[C@H]1O[C@H](O[C@H]2[C@H](O)[C@@H](O)[C@@H](O[C@H]3[C@H](O)[C@@H](O)C(O)O[C@@H]3CO)O[C@@H]2CO)[C@H](O)[C@@H](O)[C@@H]1N[C@H]1C=C(CO)[C@@H](O)[C@H](O)[C@H]1O` (stereo partly shown), the inhibition was 36.4% (Alpha-glucosidase MAL12 (MAL12, Saccharomyces cerevisiae S288c, UniProt P53341); enzyme activity, inhibitor, absorbance; 40 µg/mL).
`C#Cc1n[nH]c2c(-c3cn([C@@H](C)c4ccccn4)c(=O)[nH]c3=O)cc(F)cc12` gave an inhibition of 5.1% (Inactive tyrosine-protein kinase PEAK1 (PEAK1, Homo sapiens, UniProt Q9H792); enzyme activity, inhibitor; 0.1 µM).
With `c1cncc([C@@H]2CCCN2)c1` the inhibition was -11.6% (5-hydroxytryptamine receptor 1D (HTR1D, Homo sapiens, UniProt P28221); cell-free assay; 50 µM).
The inhibition of `CC(C)(C)OC(=O)N1CCN(C(=O)n2cc(-c3ccc(OC(F)(F)F)cc3)nn2)C(Cc2ccccc2)C1` (stereo not shown) is reported as 55% (Diacylglycerol lipase-beta (Mus musculus, UniProt Q91WC9); enzyme activity, inhibitor; 10 nM).
`Nc1ccncc1` gave an inhibition of 86% (Potassium voltage-gated channel subfamily A member 1 (KCNA1, Homo sapiens, UniProt Q09470); ion current, inhibitor, patch clamp; 30 µM).
The inhibition of `CN1CCC[C@H]1c1cccnc1` is reported as 22.8% (5-hydroxytryptamine receptor 5A (HTR5A, Homo sapiens, UniProt P47898); ligand displacement; 50 µM).
The inhibition of `CC(C)CC(=O)OC[C@H]1O[C@@](C#N)(c2ccc3c(N)ncnn23)[C@H](O)[C@@H]1O` is reported as -1% (D(2) dopamine receptor (DRD2, Homo sapiens, UniProt P14416); cell-free assay; 20 µM).
The inhibition of `Cn1cc(-c2cc(F)cc(N3CCn4c(cc5c4CCCC5)C3=O)c2CO)cc(Nc2ccc(N3CCN(C4COC4)CC3)cn2)c1=O` is reported as 19% (Leucine-rich repeat serine/threonine-protein kinase 2 (LRRK2, Homo sapiens, UniProt Q5S007); enzyme activity, inhibitor; 0.1 µM).
`Nc1ncc(-c2nc(N3CCOCC3)nc(N3CCOCC3)n2)c(C(F)F)n1` has a remaining binding of 94% (Serine/threonine-protein kinase 32A (STK32A, Homo sapiens, UniProt Q8WU08); binding, competition with immobilised ligand; 10 µM).
`COc1cc2c3c(c1OC)-c1c(OC)ccc(Br)c1CC3N(C)CC2` (stereo not shown) has an inhibition of 65% (5-hydroxytryptamine receptor 2C (HTR2C, Homo sapiens, UniProt P28335); ligand displacement, radioligand; 10 µM).
`Cc1cccc(C(=O)N2CCN(Cc3cccc(NC(=O)c4ccco4)c3)CC2)c1` has an IC50 of greater than 10 µM (PFF0160c E182D; enzyme activity, inhibitor, absorbance).
`[2H]c1c([2H])c([C@]2([2H])CCCN2C(=O)C(C)(C)Oc2ccc3cn[nH]c3c2)c([2H])c([2H])c1C([2H])([2H])[2H]` has a remaining binding of 100% (STE20/SPS1-related proline-alanine-rich protein kinase (STK39, Homo sapiens, UniProt Q9UEW8); binding, competition with immobilised ligand; 1 µM).
The inhibition of `COc1cc(/C=C/C(=O)O)ccc1OCc1cn(CC(=O)Nc2ccc(Cl)cc2)nn1` is reported as 34.8% (ACHE; enzyme activity, inhibitor, Ellman; 40 µM).
The inhibition of `CN1C(=O)/C(=N\Nc2ncc(-c3cc4ccccc4oc3=O)s2)c2cc(Cl)ccc21` is reported as 32% (ACHE; enzyme activity, inhibitor, Ellman; 50 nM).
With `COc1ccccc1NC(=O)CSc1nc2cccnc2n1-c1ccccc1OC` the IC50 was 2.53 µM (PFF0160c E182D; enzyme activity, inhibitor, absorbance).
With `Cc1nn(C)cc1-c1nc2c(N3CCN(Cc4ccc(Cl)cc4)CC3)c(Cl)cnc2[nH]1` the remaining binding was 55% (Epithelial discoidin domain-containing receptor 1 (DDR1, Homo sapiens, UniProt Q08345); binding, competition with immobilised ligand; 1 µM).
For `COc1cc(/C=C/C(=O)O)ccc1OCc1cn(CC(=O)Nc2ccc(F)cc2)nn1`, the inhibition was 9.37% (ACHE; enzyme activity, inhibitor, Ellman; 40 µM).
`CN(C)Cc1c[nH]c2ccccc12` has an inhibition of 6.1% (Palmitoyl-protein thioesterase 1 (Homo sapiens, UniProt P50897); enzyme activity, inhibitor; 125 µM).
`COc1cc(/C=C/C(=O)O)ccc1OCc1cn(CC(=O)Nc2ccc([N+](=O)[O-])cc2C)nn1` has an inhibition of 32.2% (BCHE; enzyme activity, inhibitor, Ellman; 40 µM).
The inhibition of `CC(C)C[C@H](NC(=O)[C@H](Cc1ccc(O)cc1)NC(=O)[C@@H](N)C(C)C)C(=O)N[C@@H](CCC(=O)O)C(=O)N[C@@H](CCC(N)=O)C(=O)O` is reported as roughly 98.5% (Angiotensin-converting enzyme (ACE, Homo sapiens, UniProt P12821); enzyme activity, inhibitor, absorbance; 16 mM).
With `CC(C)C[C@H]1C(=O)N2CCC[C@H]2[C@]2(O)O[C@](NC(=O)[C@@H]3C=C4c5cccc6[nH]c(Br)c(c56)C[C@H]4[N+](C)(C)C3)(C(C)C)C(=O)N12` the inhibition was 59.5% (Delta-type opioid receptor (OPRD1, Homo sapiens, UniProt P41143); ligand displacement, radioligand; 10 µM).
With `COc1ncccc1-c1cnn2ccc(N3CCN(C(=O)OC(C)C)CC3)nc12` the remaining binding was 100% (Cyclin-dependent kinase-like 1 (CDKL1, Homo sapiens, UniProt Q00532); binding, competition with immobilised ligand; 1 µM).
The inhibition of `COc1cc(/C=C/C(=O)O)ccc1OCc1cn(CC(=O)Nc2cccc([N+](=O)[O-])c2)nn1` is reported as 30% (ACHE; enzyme activity, inhibitor, Ellman; 40 µM).
For `N.N.[Cl][Pt][Cl]`, the IC50 was 5.42 µM (Pfeiffer; cell growth or viability, ATP luminescence; 72 h).
With `COc1cc(/C=C/C(=O)O)ccc1OCc1cn(CC(=O)Nc2ccccc2Cl)nn1` the inhibition was 22.3% (ACHE; enzyme activity, inhibitor, Ellman; 40 µM).
The inhibition of `CCc1ccc(N2C(=O)/C(=C3/C(=O)N(C)c4ccc(Cl)cc43)NC2=S)cc1` is reported as 70% (ACHE; enzyme activity, inhibitor, Ellman; 1 µM).
For `COc1cc(/C=C/C(=O)O)ccc1OCc1cn(CC(=O)NCCc2ccccc2)nn1`, the inhibition was 18.4% (ACHE; enzyme activity, inhibitor, Ellman; 40 µM).
With `CC[C@H](C)[C@H](NC(=O)[C@@H](NC(=O)[C@H](N)Cc1ccccc1)C(C)C)C(=O)N[C@@H](C)C(N)=O` the inhibition was 100% (Amyloid-beta precursor protein (APP, Homo sapiens, UniProt P05067); amyloid aggregation, inhibitor, fluorescence; 10 µM, 24 h).
With `COc1cc(/C=C/C(=O)O)ccc1OCc1cn(CC(=O)Nc2cccc(C)c2)nn1` the inhibition was 18.5% (BCHE; enzyme activity, inhibitor, Ellman; 40 µM).
The inhibition of `CN1C(=S)N(c2ccccc2)C(=O)/C1=C1/C(=O)N(C)c2ccc(Cl)cc21` is reported as 5% (ACHE; enzyme activity, inhibitor, Ellman; 50 nM).

Some of these lines once more:
For `C[C@H]1O[C@H](O[C@H]2[C@H](O)[C@@H](O)[C@@H](O[C@H]3[C@H](O)[C@@H](O)C(O)O[C@@H]3CO)O[C@@H]2CO)[C@H](O)[C@@H](O)[C@@H]1N[C@H]1C=C(CO)[C@@H](O)[C@H](O)[C@H]1O` (stereo partly shown), the inhibition was 36.4% (Alpha-glucosidase MAL12 (MAL12, Saccharomyces cerevisiae S288c, UniProt P53341); enzyme activity, inhibitor, absorbance; 40 µg/mL).
`C#Cc1n[nH]c2c(-c3cn([C@@H](C)c4ccccn4)c(=O)[nH]c3=O)cc(F)cc12` gave an inhibition of 5.1% (Inactive tyrosine-protein kinase PEAK1 (PEAK1, Homo sapiens, UniProt Q9H792); enzyme activity, inhibitor; 0.1 µM).
